Measured values of several laboratories.
“And” joins repeats or separate records; there may be more than shown. Where no end group is shown, it is not given here.
B1: side-chain stapled; chain CIITRPC (also: sidechain bridge or staple (positions not given here))

| Molecule | assay | system | conditions | how to read | endpoint | result |
| --- | --- | --- | --- | --- | --- | --- |
| B1 | LC-MS | PBS | 200 µM, up to 7 days, pH 7.4, room temperature | – | stability | no effect |
| Polymyxin B | – | mouse | intraperitoneal, 40 mg/kg single dose | – | mortality | 100% |
| LILLSLKSTIR | – | peptide, mouse red blood cells | concentration not given | – | minimal haemolytic concentration | inactive |
| Ac-GIGKFIHAVKKWGKTFIGEIAKS-NH2 (N-acetyl, C-amide) | RP-HPLC | peptide | – | – | retention time | 20.9 min |
| FTMSPPLQMPSKNY | circular dichroism | peptide, water with 5% DMSO | 500 µM, 18 °C | – | alpha-helix content | 4% |
| aspterric acid | – | Arabidopsis thaliana Col-0 seeds | 12.5 µg/mL, seed germination | – | hypocotyl length | 0.117 cm |
| DPDPE | RP-HPLC | HALO RP-amide column | 25 µM, formic acid/methanol, 25 min gradient | – | retention time | 16.1 min |
| heparin sodium | – | healthy Chinese adult volunteers | continuous intravenous infusion, 8 IU/kg/h, 5 days | – | decreased white blood cells | 100% |
| YGRKKRRQRRR / EIDHD (TAT-fused) | – | peptide, mouse | intrahippocampal CA1, 0.1 mg/kg | – | retention time in hippocampus | ≤ 14 days |
| insulin human | measured: NIT2 mRNA | EcoHIV-infected mouse, brain | i.p., dose not given | reference: PBS | fold change | 1.14 |
| QAKTFLDKFNHEAEDLFYQ | circular dichroism | peptide, water/TFE 1:1 v/v | 200 µM, 25 °C | – | beta-strand content | 23.6% |
| GWTLNSAGYLLGPRRIDHLLMIKEMPIARGREEAPGA / YAVDNHRSFNDKHGFT-NH2 (C-amide) | – | healthy male mice | ip, 3 µM | – | colon length | 8.6 cm and 9.1 cm and 8.5 cm and 7.8 cm |
| MEASGVNYQNMNKQTT | circular dichroism | peptide, water with 5% DMSO | 500 µM, 18 °C | – | random coil content | 79% |
| TLILGKLGIGLL | – | peptide, mouse red blood cells | concentration not given | – | minimal haemolytic concentration | inactive |
| Ac-KLALKLALKALKAALKLA-NH2 (N-acetyl, C-amide) | RP-HPLC | peptide | – | – | retention time | 24 min |
| Tetramethylrhodamine biocytin | – | mouse JIMT1-BR brain metastasis model, brain micrometastases | intravenous, 10 min | reference: uninvolved brain | increase in mean fluorescence intensity | 68.5% |
| YISPQYYGETWVTTIG | circular dichroism | peptide, water with 5% DMSO | 500 µM, 18 °C | – | random coil content | 90% |
| microperoxidase-8 | – | butanol-pyridine-acetic acid | 2183 transfers | – | partition coefficient | 0.2 |

A few entries again:
| Molecule | assay | system | conditions | how to read | endpoint | result |
| --- | --- | --- | --- | --- | --- | --- |
| YGRKKRRQRRR / EIDHD (TAT-fused) | – | peptide, mouse | intrahippocampal CA1, 0.1 mg/kg | – | retention time in hippocampus | ≤ 14 days |
| insulin human | measured: NIT2 mRNA | EcoHIV-infected mouse, brain | i.p., dose not given | reference: PBS | fold change | 1.14 |
| QAKTFLDKFNHEAEDLFYQ | circular dichroism | peptide, water/TFE 1:1 v/v | 200 µM, 25 °C | – | beta-strand content | 23.6% |
